Published values from different studies.
Parts stem from different laboratories: compare values within a part only.

Block 1 — technique: aptamer microarray, sandwich; form: DNA with 2'F-ANA; matrix: in vitro; concentration: 200 nM; with: Cy3 exosite-II aptamer, 400 nM; reading: higher = stronger binding; strand: GGTTGGTGTGGTTGG
Target: Prothrombin, mature alpha-thrombin (F2, Homo sapiens, UniProt P00734)
Notes: whole 15-mer aptamer, many near background
For `2'F-ANA at 3 4 7 9 10 11 14 15`, “mean fluorescence intensity” read 223 a.u.
For `2'F-ANA at 1 2 4 6 10 12 13 14`, “mean fluorescence intensity” read 44.6 a.u.
`2'F-ANA at 1 3 4 5 6 8 10 11 12 15`: “mean fluorescence intensity” 53.6 a.u.
Under “mean fluorescence intensity”, `2'F-ANA at 3 5 8 11 12 13 15` is recorded as 190 a.u.
`2'F-ANA at 3 4 6 7 12` — result for “mean fluorescence intensity”: 1050 a.u.

Block 2 — technique: EMSA with sequencing; form: double-stranded DNA, one strand shown; matrix: in vitro; concentration: 10 and 20 nM; reference: negative control set to 0; reading: higher = stronger binding
Target: Hepatocyte nuclear factor 3-alpha (Foxa1, Mus musculus, UniProt P35582, residues 1-468, full length assumed)
Notes: whole designed probe, mean of two concentrations, ends assumed
Target sequence (chain): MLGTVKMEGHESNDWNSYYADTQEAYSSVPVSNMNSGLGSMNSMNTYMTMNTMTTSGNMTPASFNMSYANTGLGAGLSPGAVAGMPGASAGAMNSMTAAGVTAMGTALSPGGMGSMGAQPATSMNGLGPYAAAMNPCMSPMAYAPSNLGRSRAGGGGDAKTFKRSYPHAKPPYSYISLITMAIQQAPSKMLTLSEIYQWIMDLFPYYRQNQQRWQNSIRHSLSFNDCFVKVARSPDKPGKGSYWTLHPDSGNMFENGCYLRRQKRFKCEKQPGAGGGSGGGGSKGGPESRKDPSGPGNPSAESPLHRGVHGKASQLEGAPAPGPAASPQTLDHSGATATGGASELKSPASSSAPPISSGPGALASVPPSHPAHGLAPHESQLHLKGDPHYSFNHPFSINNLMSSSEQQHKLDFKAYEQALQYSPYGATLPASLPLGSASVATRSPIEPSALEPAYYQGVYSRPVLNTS
`GTGAGCGGTGCCCATTGATGGGGAACTTTCAGATAGCTCTAGCTTCTGCCATCTTGAGTAATAAAATATGATTTACTGCTCTGCACCCTGCCAAGGATTACTCAAGATACATAGACTCATGTTGACTTAGGATTGCTGCTAAAAATGAATTGACAGCAGTATGATTTCTGGATTTAAAAGAGGTCATAAACAGACTTTGATAAGTGATATTTTATGTAGTTTCACTGGGATCGTGGGGAC` — result for “normalised bound fraction”: 0.249 ratio.
`GTGAGCGGTGCCCATTGATGGGGAACATCTTCCCCCTCTTCCTTGCCCCACCAGCTCACCTTCCCGGGTTATTTGCAGATAGGAAAATAAATAAAGCCGGCCTTACTTGAACCTCTTCTGGCGCAAACTGCTGTTTGCTCTGGATGAATCATGGTCCTTTGGCGACGCCAGGCTCCGGGAGAGCAAAGCACCGTGTCAGGGCCATGATCCGGGGTGGCCTTTCACTGGGATCGTGGGGAC` — result for “normalised bound fraction”: 0.343 ratio.
`GTGAGCGGTGCCCATTGATGGGGAACATCTTCCCCCTCTTCCTTGCCCCACCAGCTCACCTACGGGGGTTATTTGCACAAAGGAAAATAAATAAAGCCGGCATTCGTTAACGCAGTTCTGGCGCAAACTGCTGTTTGCTCTGCATGAATCATGGTCCTTACGCGAGGCGTGGCTCCGGGAGAGCAAAGCACCGTGTCAGGCGCATGATCCGGGCTCGCCTTTCACTGGGATCGTGGGGAC`: “normalised bound fraction” 0.391 ratio.
For `GTGAGCGGTGCCCATTGATGGGGAACCACACACACACACACACCCCACACACGCACTACGAGAAGGGGAGTTTGATCTTGTCTCATTGGCGTCTCGGGTCTGAAAGGAAAATCGTTTGGGTAATCTGCCAAGCTTCCAGGCTTAACGCCCGGCTCCCGCCCCCGCCCCTCCATCCCCTCCTGCCTCCCCCACTCGCCTTCAACCCCACCCGCCACCCACTTTCACTGGGATCGTGGGGAC`, “normalised bound fraction” read -0.0207 ratio.

Block 3 — technique: protein binding microarray; form: double-stranded DNA, one strand shown; matrix: in vitro; concentration: not given; reference: not given; reading: higher = stronger binding
Target: Histone acetyltransferase KAT6A, winged helix 1, GST fusion (KAT6A, Homo sapiens, UniProt Q92794, residues 1-85)
Notes: 8-mer, flanks averaged, mean of 2 arrays, mostly near background
Target sequence (chain): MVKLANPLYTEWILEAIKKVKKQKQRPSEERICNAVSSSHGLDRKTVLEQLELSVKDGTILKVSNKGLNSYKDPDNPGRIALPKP
With `CAAGTTTA` the E-score was -0.115.
`CCCCGACG` has an E-score of 0.42.
With `AATTCAAC` the E-score was -0.1.
`GAAGTTCC` gave an E-score of 0.0182.
`AACATCAG` has an E-score of -0.221.

Mixed results
`PhoQ, residues 284 288 289 292 302 303 TNSAEL` has a fold induction of 0.378 (PhoP, residues 12 14 15 18 19 STWGI (Escherichia coli, UniProt P23836); Sort-seq, refers to: YFP reporter; E. coli; PhoQ-PhoP variant library, with: 10 µM Mg2+; reference: high Mg2+ state, higher = stronger signaling).

A few entries again (block 2):
`GTGAGCGGTGCCCATTGATGGGGAACTTTCAGATAGCTCTAGCTTCTGCCATCTTGAGTAATAAAATATGATTTACTGCTCTGCACCCTGCCAAGGATTACTCAAGATACATAGACTCATGTTGACTTAGGATTGCTGCTAAAAATGAATTGACAGCAGTATGATTTCTGGATTTAAAAGAGGTCATAAACAGACTTTGATAAGTGATATTTTATGTAGTTTCACTGGGATCGTGGGGAC` — result for “normalised bound fraction”: 0.249 ratio.
